{"data": "Published values gathered from unrelated publications", "note": "A part holds a random share of what one study measured."}
{"data": "Sample 1", "target": "Interferon regulatory factor 5, full length, phosphomimetic (IRF5, Homo sapiens, UniProt Q13568-2, residues 1-514, S451D/S453D/S456D/S462D)", "method": "protein-binding microarray", "form": "double-stranded DNA, one strand shown", "matrix": "in vitro", "concentration": "940 nM top", "notes": "60-bp whole probe", "added": "salmon DNA 0.4 mg/ml", "reference": "random background probes", "reading": "higher = stronger binding", "constant ends, left off below": "GCCTAGCAC … GTCTTGATTCGCTTGACGCTGCTG"}
{"Strand": "TTTGGTTTCGACACTGGGTTAGTGCTA", "fitted relative affinity [z-score]": 11.1}
{"Strand": "TTAGGTTTCGGTTCCGTTTAGTGCTAG", "fitted relative affinity [z-score]": 15.5}
{"Strand": "TCAGTTTTCCTTATTGCACTGTGCTAG", "fitted relative affinity [z-score]": 1.72}
{"Strand": "GAGGGTATCCTACTGCTGACGTGCTAG", "fitted relative affinity [z-score]": -0.443}
{"Strand": "GCCGGTTCCGGTTTCGGGACGTGCTAG", "fitted relative affinity [z-score]": 6.27}
{"Strand": "TTAGGTCTCCTGCTGCTTTAGTGCTAG", "fitted relative affinity [z-score]": -0.275}
{"Strand": "GACCGTTTCGGTTCCGGGACGTGCTAG", "fitted relative affinity [z-score]": 7.56}
{"Strand": "GCCGGTTTCGGTTTCGGGACGTGCTAG", "fitted relative affinity [z-score]": 15.4}
{"data": "Sample 2", "target": "Hepatocyte nuclear factor 3-alpha (Foxa1, Mus musculus, UniProt P35582, residues 1-468, full length assumed)", "method": "EMSA with sequencing", "form": "double-stranded DNA, one strand shown", "matrix": "in vitro", "concentration": "10 and 20 nM", "notes": "whole designed probe, mean of two concentrations, ends assumed", "reference": "negative control set to 0", "reading": "higher = stronger binding", "constant ends, left off below": "GTGAGCGGTGCCCATTGATGGGGAAC … TTTCACTGGGATCGTGGGGAC", "sequence of UniProt P35582 (whole entry, looked up)": "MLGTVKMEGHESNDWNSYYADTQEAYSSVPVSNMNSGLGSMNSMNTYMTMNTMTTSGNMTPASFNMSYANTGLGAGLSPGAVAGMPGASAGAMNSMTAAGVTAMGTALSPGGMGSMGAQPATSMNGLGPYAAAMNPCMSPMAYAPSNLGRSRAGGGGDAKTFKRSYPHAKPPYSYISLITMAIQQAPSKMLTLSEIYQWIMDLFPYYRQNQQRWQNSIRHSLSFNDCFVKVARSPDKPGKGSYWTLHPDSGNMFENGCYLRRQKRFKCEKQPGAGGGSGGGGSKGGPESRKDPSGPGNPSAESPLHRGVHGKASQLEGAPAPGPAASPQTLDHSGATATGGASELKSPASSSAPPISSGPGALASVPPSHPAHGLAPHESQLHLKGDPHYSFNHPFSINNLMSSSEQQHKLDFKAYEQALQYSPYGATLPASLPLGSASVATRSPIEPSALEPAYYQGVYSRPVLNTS"}
{"Strand": "GTGGCACCATTTCCTTATTAAAGCTCTATGCAGAAGGAGTGGAGCTACTTTGTATGCTTATTCTTTGTTCTTCTACCACTTTCTCTTTCCCATGTTTACATTACAAGGGAGAAGTTAAGAAAATAAAAGAAGCCAACTGGGAAAGGCCACATAGCAGATTTGAGGCTTTGGGAGTAGGAGCAAGGAGCACAAA", "normalised bound fraction [ratio]": 0.396}
{"Strand": "GTCCCCTTGTGCGTAGATGGTGGCAAATGATTGTTTGCCAAGCCTTCTACCTCCTCCCTTTCTGTGTTCCATTGAGATCATGGAAATGCAAAGTAAATAGCCATGGAGTAAAATGCCTCCGAGAGTATTTATTTAAGAGTATTGTTCCAGGATATGCACGAAGATAAAGACTTTATGTAATGAATGAGTGACT", "normalised bound fraction [ratio]": 0.417}
{"Strand": "AGGTGAATTGGCTGCTTCCATCCTGGCTTGGAACTTCAGACATAGAAGCCTTGGGACTTTCTCAGGACTTTCTCCTGACTCATGCCAGATGCTTGTTTGCTGAATCTCTGTGGATCACGTGACCTTAGCCAGGGATGTTGGTGAAACTGTGTGTTGGTCTAGGTACCTAGCCCATGCTAGGTGCTCATCGAAT", "normalised bound fraction [ratio]": 0.0744}
{"Strand": "TCTTGGTCTGCAGTCTACCCCATGTCATTGTCCCTTGGGTTTTCACTTATACACTTGGCTTTCTGTCCATGATTTAAGTAAACAAAAAAAAAGTAAACATGGCAGCACAATGTTAATAGGCATGTCTACCTGCTGCTCTCCCAAGCCCAGCCTTTTCACACTGAAGTCATGCTAGGAGCTAGATGTGTTTGTC", "normalised bound fraction [ratio]": 0.534}
{"Strand": "CCCACCTAGCATAAAATCAAGTAAAGGAGATAACAAATACACCTAAATAAATAATCAAAAATTCTAGAGTGGCTTGAAATCTACATACTACTAAGTAATTTTGGAGATGCTGAGAGTAGAACAATATTTATATATGATCAGAGGAATAAAGGAAGTGTCACAGAAAAAATAATATTCCAACTGAGCCATATGA", "normalised bound fraction [ratio]": 0.411}
{"Strand": "ATCTTCCCCCTCTTCCTTGCCCCACCAGCTCACCTACGGGGGTTATTTGCACAAAGGAAAATAAATAAAGCCGGCATTCGTTAACCCTCTTCACGCGCATACTGCTGTTTGCTCTGGATCTAACATGGTCCTTTGGCGACGCCAGGCTCCGGGAGAGCAAAGCACCGTGTCAGGGCCATGATCCGGGGTGGCC", "normalised bound fraction [ratio]": 0.384}
{"Strand": "TCCTTTATCCCAACATGTTTATACAGACAAAACCAGGTTAAAATCGACACAAGGTCAACTTGAAGAGGAAGGTAAATGGGGAGACGTCACAAAATAAACATGAAGTCTTGTGTACAAGCATCTGCAGAAGAGTTCAGCCTCACCACTTGGGTAATGCTGTTGGAATGTGGTCTGGGTTCACTGTATTTGAATG", "normalised bound fraction [ratio]": 0.378}
{"Strand": "ATCTTCCCCCTCTTCCTTGCCCCACCAGCTCACCTTCCCGGGTATCTGCAAATAAGGAAAATAAATAAAGCCGGCATTCGTTAACCCTCTTCTGGCGCAAACTGCTGTTTGCTCTGGATGAATCATGGTCCTTTGGCGACGCCAGGCTCCGGGAGAGCAAAGCACCGTGTCAGGGCCATGATCCGGGGTGGCC", "normalised bound fraction [ratio]": 0.335}
{"data": "Sample 3", "target": "RNA binding protein fox-1 homolog 2, RRM domain, GST-SBP tag (RBFOX2, Homo sapiens, UniProt O43251-10, residues 100-194)", "method": "RNA Bind-n-Seq", "form": "RNA", "matrix": "in vitro", "concentration": "365 nM", "notes": "natural RNA segment, single round, ends assumed", "reference": "no-protein control", "reading": "higher = stronger binding", "constant ends, left off below": "GGGAGUUCUACAGUCCGACGAUC … UGGAAUUCUCGGGUGCCAA", "Residues (chain)": "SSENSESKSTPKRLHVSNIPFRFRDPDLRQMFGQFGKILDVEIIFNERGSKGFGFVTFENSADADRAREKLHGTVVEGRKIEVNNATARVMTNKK"}
{"Strand": "GAAGGCCAGGAGCCCUGUGCUCUUGACAUCACUGUACUCCCUCUCCCUCCCCGCAACCCUGCCCCACCUUGCAUCCAGGGUAUGGUGUAAAUAAACCUGUGUUGCCAUGG", "RBNS enrichment (R)": 0.537}
{"Strand": "UCUCUCCUUUUUCUUUUUUCUUUUUCUUUUCUUUUUGUUUUUUGUUUUUUUUUGUGGGAGAUCAAAGGUUUAAAGUCUUACUCUUAAGAUGUGUUUGCAGAAAGAAGGAA", "RBNS enrichment (R)": 2.01}
{"Strand": "AAUGGAUACAUAACAAAGAAUUCUCUGUGACUUAUUAAGAAUGACUGUGUCUGCCCAGUAACCUGUUCUGAGUUACUGGUAAAGUCGUGGGUGGGUGAAUGGCAGGCUUC", "RBNS enrichment (R)": 1.02}
{"Strand": "ACACUUAACAUUUGAGACUAGUAUUUAUUGAUCCAGGCAAAGUAAUUAAUUAAUCAUGCUUGGGCUUACUUUUUCAGUUUGUAAGGUUAAGCAUAUGUGCAUGCGUGCGU", "RBNS enrichment (R)": 4.59}
{"Strand": "UCACCAUGAGCUAUAUUUUCUUCUGGAUCUUUGACCAAGGUGAUGUCAGCUUAUUUCUGGGGAAGGUGUUGAGCUCUUAUACAUGAAAAUGGAUAUAGGCUAUUCUCUGG", "RBNS enrichment (R)": 0.32}
{"Strand": "UUUCAGUUGCAACCUAUUUUUAAUAAACUUUGUAUGUAUUUAAGUGUAUUUGCUAUUGUUUUGAAAGUGCUGACAAAGUUUAUAUUUGUAACAUCAGCCUUCCUCGCCCA", "RBNS enrichment (R)": 1.22}
{"Strand": "AUGAUUUUUUACAGUGUUUUAGACCUUGAAUAGCUAGUGGCUUUUGCUAAAAACUUUUGGCAACAAAAUUAAACUAAAACCAAAGUCAACAUGUGAAGUGUUUAUCAUAA", "RBNS enrichment (R)": 0.433}
{"Strand": "UGAUUCAAUAUUAAUCCUCGGGUCUUGAACUGGACAUCCUAAUGAUGCAAUUAUGUAACCAUUAAGCUGAUUCCGAGGCUGGCAGGCUAGGGCCGCCCCUCUGGAAAGGU", "RBNS enrichment (R)": 0.37}
{"data": "Other studies, line by line"}
{"SMILES": "O=c1c(O[C@@H]2O[C@H](CO)[C@H](O)[C@H](O)[C@H]2O)c(-c2ccc(O)c(O)c2)oc2cc(O)cc(O)c12", "organism": "Sarcocystis neurona", "effect on": "parasite growth", "concentration": "10 µM", "time": "96 h", "notes": "first screen", "quantity": "inhibition", "value": "3.2%"}
{"note": "For quick reference, copied from above (sample 3):"}
{"Strand": "UGAUUCAAUAUUAAUCCUCGGGUCUUGAACUGGACAUCCUAAUGAUGCAAUUAUGUAACCAUUAAGCUGAUUCCGAGGCUGGCAGGCUAGGGCCGCCCCUCUGGAAAGGU", "RBNS enrichment (R)": 0.37}
{"Strand": "UCUCUCCUUUUUCUUUUUUCUUUUUCUUUUCUUUUUGUUUUUUGUUUUUUUUUGUGGGAGAUCAAAGGUUUAAAGUCUUACUCUUAAGAUGUGUUUGCAGAAAGAAGGAA", "RBNS enrichment (R)": 2.01}
